Results pooled from the literature.
Each line is one published result; not all experiments were run side by side.
Organism: Klebsiella pneumoniae

SMILES	observed	method	strain	time	temperature	notes	MIC
C=CCO/N=C(\C(=O)N[C@@H]1C(=O)N(OS(=O)(=O)O)C1(C)C)c1nsc(N)n1		agar dilution	2146, NDM-1				64 µg/mL
CC[C@H](C)[C@H](NC(=O)[C@@H](CCCNC(=N)N)NC(=O)[C@H](CCCNC(=N)N)NC(=O)[C@H](Cc1c[nH]cn1)NC(=O)[C@H](Cc1c[nH]c2ccccc12)NC(=O)[C@H](CCCNC(=N)N)NC(=O)[C@@H]1CCCN1C(=O)[C@H](CCCNC(=N)N)NC(=O)[C@@H]1CCCN1C(=O)[C@H](CC(C)C)NC(=O)[C@H](Cc1ccc(O)cc1)NC(=O)[C@@H]1CCCN1C(=O)[C@@H]1CCCN1C(=O)[C@H](CCCCN)NC(=O)[C@H](CC(=O)O)NC(=O)[C@@H](N)C(C)C)C(=O)N[C@@H](Cc1ccc(O)cc1)C(=O)N[C@@H](CC(N)=O)C(=O)N[C@H](CCCNC(=N)N)C(N)=O		broth microdilution	DSM 681	18 h	37 °C	25% MHB2	2 µg/mL
CCCCCCCC(=O)N[C@@H](CCN)C(=O)N[C@H](C(=O)N[C@@H](CCN)C(=O)N[C@H]1CCNC(=O)[C@H]([C@@H](C)O)NC(=O)[C@H](CCN)NC(=O)[C@H](CCN)NC(=O)[C@H](CC(C)C)NC(=O)[C@@H](Cc2ccc(Br)cc2)NC(=O)[C@H](CCN)NC1=O)[C@@H](C)O		broth microdilution	ATCC 19606				< 0.125 µg/mL
CN[C@@H]1[C@H](O)[C@H](NC)[C@H]2O[C@]3(O)[C@H](O[C@@H]2[C@H]1O)O[C@H](C)C[C@H]3NC(=O)Cc1ccc(Cl)cn1	microbial growth	broth dilution	ATCC33495				> 200 µg/mL
COc1ccc2ccc(O)c(/C=N/[C@H]3CCCC[C@H]3/N=C/c3cccc(OC)c3O)c2c1	bacterial growth	broth microdilution	carbapenem-resistant clinical isolate				> 40 µM
CC(C)(O/N=C(\C(=O)N[C@@H]1C(=O)N(OS(=O)(=O)O)C1(C)C)c1nsc(N)n1)C(=O)O		agar dilution	09-20, NDM-1				64 µg/mL
COc1ccc2ccc(O)c(/C=N/[C@H]3CCCC[C@H]3/N=C/c3cccc(C)c3O)c2c1	bacterial growth	broth microdilution	carbapenem-resistant clinical isolate				> 40 µM
CCn1c(-c2ccc(Br)cc2)c(-c2ccc(Br)cc2)n(CC)c1=[Se]		broth microdilution	carbapenem-resistant BAA-1705	24 h			> 40 µM
CC[C@H](C)[C@H](NC(=O)[C@@H](CCCNC(=N)N)NC(=O)[C@H](CCCNC(=N)N)NC(=O)[C@H](CC(N)=O)NC(=O)[C@H](Cc1c[nH]c2ccccc12)NC(=O)[C@H](CCCNC(=N)N)NC(=O)[C@@H]1CCCN1C(=O)[C@H](CCCNC(=N)N)NC(=O)[C@@H]1CCCN1C(=O)[C@H](CC(C)C)NC(=O)[C@H](Cc1ccc(O)cc1)NC(=O)[C@@H]1CCCN1C(=O)[C@@H]1CCCN1C(=O)[C@H](CCCCN)NC(=O)[C@H](CC(=O)O)NC(=O)[C@@H](N)C(C)C)C(=O)N[C@@H](Cc1ccc(O)cc1)C(=O)N[C@@H](CC(N)=O)C(=O)N[C@H](CCCNC(=N)N)C(N)=O		broth microdilution	DSM 681	18 h	37 °C	25% MHB2	2 µg/mL
N=C(N)NCCC[C@@H]1NC(=O)[C@@H](CCCNC(=N)N)NC(=O)[C@H](CCCNC(=N)N)NC(=O)[C@@H](C(c2ccccc2)c2ccccc2)NC(=O)[C@@H](C(c2ccccc2)c2ccccc2)NC(=O)[C@@H](C(c2ccccc2)c2ccccc2)NC(=O)[C@@H](CCCNC(=N)N)NC1=O			ATCC 700603, ESBL SHV-18				64 µg/mL

For quick reference, copied from above:
SMILES	observed	method	strain	time	temperature	notes	MIC
COc1ccc2ccc(O)c(/C=N/[C@H]3CCCC[C@H]3/N=C/c3cccc(C)c3O)c2c1	bacterial growth	broth microdilution	carbapenem-resistant clinical isolate				> 40 µM
